Published values from different studies.
Several values in a cell are separate wells, animals, samples, runs or records. ± gives the spread as reported.
Tumor necrosis factor receptor superfamily member 9/Nectin-4: Tumor necrosis factor receptor superfamily member 9/Nectin-4 (Homo sapiens, UniProt Q07011+Q96NY8)
Chain of UniProt Q96NY8 (whole entry, looked up): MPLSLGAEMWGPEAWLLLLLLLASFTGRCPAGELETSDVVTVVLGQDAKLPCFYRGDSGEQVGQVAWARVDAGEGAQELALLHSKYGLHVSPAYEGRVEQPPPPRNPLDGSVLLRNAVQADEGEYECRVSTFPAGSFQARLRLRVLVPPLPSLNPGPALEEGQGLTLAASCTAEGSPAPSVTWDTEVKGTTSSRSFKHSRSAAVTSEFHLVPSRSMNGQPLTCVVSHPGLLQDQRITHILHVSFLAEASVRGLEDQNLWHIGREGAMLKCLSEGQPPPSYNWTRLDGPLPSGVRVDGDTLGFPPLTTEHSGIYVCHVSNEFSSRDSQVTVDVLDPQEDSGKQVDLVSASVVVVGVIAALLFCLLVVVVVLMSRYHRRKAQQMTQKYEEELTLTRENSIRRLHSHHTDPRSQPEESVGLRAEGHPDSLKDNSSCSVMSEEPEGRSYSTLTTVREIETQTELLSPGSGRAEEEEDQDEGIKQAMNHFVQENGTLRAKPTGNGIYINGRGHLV
Chain of UniProt Q07011 (whole entry, looked up): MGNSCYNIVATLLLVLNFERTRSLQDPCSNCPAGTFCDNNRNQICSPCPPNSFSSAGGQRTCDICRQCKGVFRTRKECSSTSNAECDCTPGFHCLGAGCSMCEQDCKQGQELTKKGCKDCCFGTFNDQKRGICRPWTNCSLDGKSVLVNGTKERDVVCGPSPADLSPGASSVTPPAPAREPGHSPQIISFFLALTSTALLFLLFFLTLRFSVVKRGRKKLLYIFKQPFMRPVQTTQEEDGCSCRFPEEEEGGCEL
CYP1A2: Cytochrome P450 1A2 (CYP1A2, Homo sapiens, UniProt P05177)
Chain of UniProt P05177 (whole entry, looked up): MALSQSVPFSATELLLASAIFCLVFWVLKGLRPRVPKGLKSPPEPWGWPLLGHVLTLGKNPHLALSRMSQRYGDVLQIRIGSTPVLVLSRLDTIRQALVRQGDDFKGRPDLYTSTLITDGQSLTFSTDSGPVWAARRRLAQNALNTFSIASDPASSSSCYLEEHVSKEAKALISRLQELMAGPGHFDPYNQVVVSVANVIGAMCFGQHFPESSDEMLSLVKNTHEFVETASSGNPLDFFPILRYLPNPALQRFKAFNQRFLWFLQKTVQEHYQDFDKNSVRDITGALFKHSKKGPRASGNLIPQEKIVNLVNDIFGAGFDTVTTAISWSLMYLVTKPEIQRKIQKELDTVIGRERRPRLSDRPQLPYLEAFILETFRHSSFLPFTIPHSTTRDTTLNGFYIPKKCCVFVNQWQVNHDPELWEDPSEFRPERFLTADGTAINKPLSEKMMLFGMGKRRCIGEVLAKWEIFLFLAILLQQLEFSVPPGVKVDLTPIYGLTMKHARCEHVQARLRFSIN
Chain of UniProt Q16853 (whole entry, looked up): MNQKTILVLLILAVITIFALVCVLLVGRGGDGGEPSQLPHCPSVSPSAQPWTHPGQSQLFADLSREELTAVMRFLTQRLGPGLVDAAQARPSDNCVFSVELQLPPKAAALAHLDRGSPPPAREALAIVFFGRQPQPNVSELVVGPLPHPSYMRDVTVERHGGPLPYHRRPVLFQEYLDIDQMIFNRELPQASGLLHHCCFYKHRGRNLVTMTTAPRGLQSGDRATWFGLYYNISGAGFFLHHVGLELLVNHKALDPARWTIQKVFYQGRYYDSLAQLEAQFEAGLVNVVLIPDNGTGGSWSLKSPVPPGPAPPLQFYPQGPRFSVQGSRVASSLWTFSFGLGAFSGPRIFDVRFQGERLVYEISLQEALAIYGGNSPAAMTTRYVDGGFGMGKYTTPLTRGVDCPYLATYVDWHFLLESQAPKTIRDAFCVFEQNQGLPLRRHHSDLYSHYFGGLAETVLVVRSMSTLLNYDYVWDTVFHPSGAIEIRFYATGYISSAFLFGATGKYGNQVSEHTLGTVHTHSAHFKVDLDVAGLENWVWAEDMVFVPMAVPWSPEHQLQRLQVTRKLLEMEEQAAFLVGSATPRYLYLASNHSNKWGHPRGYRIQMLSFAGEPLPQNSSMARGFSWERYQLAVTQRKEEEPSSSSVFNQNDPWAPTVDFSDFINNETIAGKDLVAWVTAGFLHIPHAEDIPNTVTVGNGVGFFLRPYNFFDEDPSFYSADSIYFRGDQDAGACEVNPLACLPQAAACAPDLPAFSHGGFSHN
Chain of UniProt P08684 (whole entry, looked up): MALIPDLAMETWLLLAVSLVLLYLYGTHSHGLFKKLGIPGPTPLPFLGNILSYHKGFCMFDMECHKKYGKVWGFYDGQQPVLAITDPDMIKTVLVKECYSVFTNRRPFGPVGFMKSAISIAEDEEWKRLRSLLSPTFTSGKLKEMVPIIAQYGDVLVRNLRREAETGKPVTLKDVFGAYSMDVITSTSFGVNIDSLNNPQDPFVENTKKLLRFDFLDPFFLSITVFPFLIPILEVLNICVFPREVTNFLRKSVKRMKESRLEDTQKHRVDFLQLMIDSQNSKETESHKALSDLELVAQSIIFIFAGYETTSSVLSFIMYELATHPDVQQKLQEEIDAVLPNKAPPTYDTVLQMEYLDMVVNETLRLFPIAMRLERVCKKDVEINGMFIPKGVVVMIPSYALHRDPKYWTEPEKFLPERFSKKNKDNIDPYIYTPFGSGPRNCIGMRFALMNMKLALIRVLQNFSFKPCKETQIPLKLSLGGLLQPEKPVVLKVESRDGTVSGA
Chain of UniProt P0DMM9 (whole entry, looked up): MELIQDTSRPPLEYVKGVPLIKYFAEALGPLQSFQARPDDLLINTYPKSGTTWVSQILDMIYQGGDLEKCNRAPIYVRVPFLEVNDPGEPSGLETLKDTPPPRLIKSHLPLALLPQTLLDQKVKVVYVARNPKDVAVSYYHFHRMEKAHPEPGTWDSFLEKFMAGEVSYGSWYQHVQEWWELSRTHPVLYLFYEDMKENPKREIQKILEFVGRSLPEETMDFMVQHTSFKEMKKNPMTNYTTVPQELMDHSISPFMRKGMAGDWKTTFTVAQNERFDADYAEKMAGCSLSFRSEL
Chain of UniProt Q12809 (whole entry, looked up): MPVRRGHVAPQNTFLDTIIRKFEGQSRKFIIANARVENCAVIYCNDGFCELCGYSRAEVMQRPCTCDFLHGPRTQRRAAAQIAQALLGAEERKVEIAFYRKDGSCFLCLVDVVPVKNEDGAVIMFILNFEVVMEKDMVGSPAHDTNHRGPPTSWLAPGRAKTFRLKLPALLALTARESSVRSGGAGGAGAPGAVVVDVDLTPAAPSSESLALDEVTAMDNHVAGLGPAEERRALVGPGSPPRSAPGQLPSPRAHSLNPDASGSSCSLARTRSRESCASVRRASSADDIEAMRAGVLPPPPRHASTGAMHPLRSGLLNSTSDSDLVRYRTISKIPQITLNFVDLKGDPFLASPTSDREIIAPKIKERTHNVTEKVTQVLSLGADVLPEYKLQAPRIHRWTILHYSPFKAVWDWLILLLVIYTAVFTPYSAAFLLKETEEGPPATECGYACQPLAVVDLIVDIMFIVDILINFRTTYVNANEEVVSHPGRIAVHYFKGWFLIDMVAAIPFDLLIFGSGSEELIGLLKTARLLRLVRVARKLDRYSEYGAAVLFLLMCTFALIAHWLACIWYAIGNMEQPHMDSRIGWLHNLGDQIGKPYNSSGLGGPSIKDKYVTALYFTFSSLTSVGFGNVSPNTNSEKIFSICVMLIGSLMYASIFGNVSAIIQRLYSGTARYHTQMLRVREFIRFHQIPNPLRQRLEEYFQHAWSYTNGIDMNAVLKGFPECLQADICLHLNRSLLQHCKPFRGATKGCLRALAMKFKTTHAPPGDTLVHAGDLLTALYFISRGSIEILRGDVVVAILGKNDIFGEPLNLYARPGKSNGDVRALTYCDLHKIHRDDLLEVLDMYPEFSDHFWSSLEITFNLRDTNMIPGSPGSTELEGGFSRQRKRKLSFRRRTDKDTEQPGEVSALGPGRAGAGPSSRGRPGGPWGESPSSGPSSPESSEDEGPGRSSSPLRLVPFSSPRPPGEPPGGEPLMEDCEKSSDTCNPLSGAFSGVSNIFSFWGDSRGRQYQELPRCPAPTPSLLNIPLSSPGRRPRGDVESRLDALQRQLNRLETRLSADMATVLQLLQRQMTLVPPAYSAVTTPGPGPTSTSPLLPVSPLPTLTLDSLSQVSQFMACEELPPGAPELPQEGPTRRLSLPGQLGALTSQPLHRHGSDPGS

| Compound | target | test | test system | conditions | how to read | quantity | value |
| --- | --- | --- | --- | --- | --- | --- | --- |
| Cc1ccc2c(c1)C(=O)[C@]1(O)CCN(c3ccc4nc(C)ccc4c3)C1=N2.Cl | Sodium channel protein type 5 subunit alpha (SCN5A, Homo sapiens, UniProt Q14524) |  |  | concentration not given |  | inhibition | < 25% |
| O=C(O)CN1Cc2cccc(n2)CN(CC(=O)O)Cc2cccc(n2)C1 | Mn2+ | potentiometric titration |  | pH 7.4, ligand and Mn2+ 10 µM |  | pMn | 9.98 |
| C=CC(=O)N1C[C@H](Nc2ncnc3[nH]ccc23)CC[C@@H]1C | CYP | substrate | human, plasma | oral, 50 mg single dose, cpd alone |  | AUC(0-inf) | 449 ng·h/mL |
| CCCC[C@@H]1NC(=O)[C@H](Cc2ccc(O)cc2)NC(=O)[C@@H]2CCCN2C(=O)[C@H](CC(=O)O)NC(=O)[C@H](C)NC(=O)[C@H](Cc2ccccc2)NC(=O)[C@@H]2CSCCC(=O)N3CN(CN(C3)C(=O)CCSC[C@@H](C(=O)N[C@@H](C)C(N)=O)NC1=O)C(=O)CCSC[C@H](NC(C)=O)C(=O)N[C@@H](CC(C)(C)C)C(=O)N1CCC[C@H]1C(=O)N[C@@H](CCCCNC(=O)CCc1cn(CC(=O)N[C@H]3CSCCC(=O)N4CN5CN(C4)C(=O)CCSC[C@H](NC(=O)[C@@H](CC(=O)O)NC(=O)[C@H](Cc4cccc6ccccc46)NC(=O)[C@@H]4CCCN4C3=O)C(=O)N[C@@H](CCSC)C(=O)N[C@@H](CCCCNC(=N)N)C(=O)N[C@@H](CC(=O)O)C(=O)N[C@@H](Cc3c[nH]c4ccccc34)C(=O)N[C@@H](CO)C(=O)N[C@@H]([C@@H](C)O)C(=O)N3CCC[C@H]3C(=O)N3C[C@H](O)C[C@H]3C(=O)N[C@@H](Cc3c[nH]c4ccccc34)C(=O)N[C@H](C(N)=O)CSCCC5=O)nn1)C(=O)N[C@H](C)C(=O)N1CCC[C@H]1C(=O)N[C@@H](Cc1ccc(O)cc1)C(=O)N2 | Tumor necrosis factor receptor superfamily member 9/Nectin-4 | reporter gene, agonist, luciferase reporter | CD137 Jurkat reporter with HT-1376 | 6 h, geometric mean | relative to: wells without compound | Emax | 42 fold |
| N#C[C@H](C[C@@H]1CCCNC1=O)NC(=O)[C@H](CC1CC1)NC(=O)c1cc2cccc(Cl)c2[nH]1 | CYP1A2 | NADPH metabolic stability |  | 2 µM, pH 7.4, 37 °C, 100 pmol/mL enzyme |  | half-life | > 2.13 h |
| CCC(=O)NCC[C@@H]1CCc2cc(O)c3c(c21)CCO3 | Sulfotransferase 1A3 (SULT1A3, Homo sapiens, UniProt P0DMM9) | substrate, sulfation, purified enzyme |  | 10 µM, 10 min, pH 7.0, 37 °C |  | specific activity | 0.17 ± 0.04 nmol/min/mg |
| CC(C)=CCc1c(O)cc(O)c2c1O[C@H](c1ccc(O)cc1)CC2=O | CYP1A2 |  |  | 1 µM, pH 7.4 |  | inhibition | 55.8 ± 0.7% |
| CCCC[C@@H]1NC(=O)[C@H](Cc2ccc(O)cc2)NC(=O)[C@@H](C)N(C)C(=O)[C@H](CC(=O)O)NC(=O)[C@H](C)NC(=O)[C@H](Cc2ccccc2)NC(=O)[C@@H]2CSCCC(=O)N3CN(CN(C3)C(=O)CCSC[C@H](NC(C)=O)C(=O)N[C@@H](CC(C)(C)C)C(=O)N3CCC[C@H]3C(=O)N[C@@H](CCC(=O)O)C(=O)N[C@H](CCCCNC(=O)CCc3cn(CCOCCOCCOCCN(CCOCCOCCOCCC(=O)N[C@H]4CSCCC(=O)N5CN6CN(C5)C(=O)CCSC[C@H](NC(=O)[C@@H](CC(=O)O)NC(=O)[C@H](Cc5cccc7ccccc57)NC(=O)[C@@H]5CCCN5C4=O)C(=O)N[C@@H](CCSC)C(=O)N[C@@H](CCCCNC(=N)N)C(=O)N[C@@H](CC(=O)O)C(=O)N[C@@H](Cc4c[nH]c5ccccc45)C(=O)N[C@@H](CO)C(=O)N[C@@H]([C@@H](C)O)C(=O)N4CCC[C@H]4C(=O)N4C[C@H](O)C[C@H]4C(=O)N[C@@H](Cc4c[nH]c5ccccc45)C(=O)N[C@H](C(N)=O)CSCCC6=O)CCOCCOCCOCCn4cc(CCC(=O)NCCCC[C@H]5NC(=O)[C@H](CCC(=O)O)NC(=O)[C@@H]6CCCN6C(=O)[C@H](CC(C)(C)C)NC(=O)[C@@H](NC(C)=O)CSCCC(=O)N6CN7CN(C6)C(=O)CCSC[C@H](NC(=O)[C@H](Cc6ccc(O)cc6)NC(=O)[C@@H]6CCCN6C5=O)C(=O)N[C@@H](Cc5ccccc5)C(=O)N[C@@H](C)C(=O)N[C@@H](CC(=O)O)C(=O)N(C)[C@H](C)C(=O)N[C@@H](Cc5ccc(O)cc5)C(=O)N[C@@H](CCCC)C(=O)N[C@H](C(N)=O)CSCCC7=O)nn4)nn3)C(=O)N3CCC[C@H]3C(=O)N[C@@H](Cc3ccc(O)cc3)C(=O)N2)C(=O)CCSC[C@@H](C(N)=O)NC1=O | Tumor necrosis factor receptor superfamily member 9/Nectin-4 | reporter gene, agonist, luciferase reporter | CD137 Jurkat reporter with HT-1376 | 6 h, geometric mean | relative to: wells without compound | Emax | 75 fold |
| CC[C@H]1[C@@H](O)[C@@H]2[C@H](CC[C@]3(C)[C@@H]([C@H](C)CCNC(=O)NS(=O)(=O)c4ccc(C(C)(C)C)cc4)CC[C@@H]23)[C@@]2(C)CC[C@@H](O)C[C@@H]12 | Cytochrome P450 3A4 (CYP3A4, Homo sapiens, UniProt P08684) |  | human, plasma | dose not given, added: fluconazole |  | half-life mean | 22.7 h |
| Cc1oc2ccccc2c1Cc1cc(I)c(OCC(=O)O)c(I)c1 | Voltage-gated inwardly rectifying potassium channel KCNH2 (KCNH2, Homo sapiens, UniProt Q12809) | current activation, whole-cell patch clamp | HEK293 expressing hERG1 | concentration not given, 4 mM K+, -20 mV |  | Hill coefficient | 1.1 |
| NCc1cc2c(cc1F)C(=O)N(C1CCC(=O)NC1=O)C2 (stereo not shown) | Amine oxidase [copper-containing] 3 (AOC3, Homo sapiens, UniProt Q16853) | substrate, LC-MS/MS | cirrhotic human liver lysate | 125.00 µM, 60 min, pH 7.4 |  | concentration | 12500 ng/mL and 14700 ng/mL |
| CCc1c2c(nc3ccc(O)cc13)-c1cc3c(c(=O)n1C2)COC(=O)[C@]3(O)CC | UGT (mouse) | glucuronidation, substrate | FVB mouse, intestinal S9 fraction | 30 min, pH 7.4 |  | Km | 2.63 ± 3.39 µM |
| CCCC[C@@H]1NC(=O)[C@H](Cc2ccc(O)cc2)NC(=O)[C@@H]2CCCN2C(=O)[C@H](CC(=O)O)NC(=O)[C@H](C)NC(=O)[C@H](Cc2ccccc2)NC(=O)[C@@H]2CSCCC(=O)N3CN(CN(C3)C(=O)CCSC[C@@H](C(=O)N[C@@H](CNC(=O)CCOCCOCCOCCOCCOCCOCCOCCOCCOCCOCCOCCOCCn3cc(CCC(=O)NCCC(=O)N(C)CC(=O)N(C)CC(=O)N(C)CC(=O)N(C)CC(=O)N(C)CC(=O)N(C)CC(=O)N(C)CC(=O)N(C)CC(=O)N(C)CC(=O)N(C)CC(=O)N[C@H]4CSCCC(=O)N5CN6CN(C5)C(=O)CCSC[C@H](NC(=O)[C@@H](CC(=O)O)NC(=O)[C@H](Cc5cccc7ccccc57)NC(=O)[C@@H]5CCCN5C4=O)C(=O)N[C@@H](CCSC)C(=O)N[C@@H](CCCCNC(=N)N)C(=O)N[C@@H](CC(=O)O)C(=O)N[C@@H](Cc4c[nH]c5ccccc45)C(=O)N[C@@H](CO)C(=O)N[C@@H]([C@@H](C)O)C(=O)N4CCC[C@H]4C(=O)N4C[C@H](O)C[C@H]4C(=O)N[C@@H](Cc4c[nH]c5ccccc45)C(=O)N[C@H](C(N)=O)CSCCC6=O)nn3)C(N)=O)NC1=O)C(=O)CCSC[C@H](NC(=O)[C@H](C)NC(C)=O)C(=O)N[C@@H]([C@@H](C)CC)C(=O)N[C@@H](CCC(=O)O)C(=O)N[C@@H](CCC(=O)O)C(=O)NCC(=O)N[C@@H](CCC(N)=O)C(=O)N[C@@H](Cc1ccc(O)cc1)C(=O)N2 | Tumor necrosis factor receptor superfamily member 9/Nectin-4 | reporter gene, agonist, luciferase reporter | CD137 Jurkat reporter with HT-1376 | 6 h, geometric mean | relative to: wells without compound | Emax | 25 fold |
| N#Cc1ccc([C@H]2CCc3cncn32)c(F)c1 | CYP2B6 (human) | inducer |  | 48 h |  | EC50 | 136 ± 12 µM |
| CCCC[C@@H]1NC(=O)[C@H](Cc2ccc(O)cc2)NC(=O)[C@@H]2CCCN2C(=O)[C@H](CC(=O)O)NC(=O)[C@H](C)NC(=O)[C@H](Cc2ccccc2)NC(=O)[C@@H]2CSCCC(=O)N3CN(CN(C3)C(=O)CCSC[C@@H](C(=O)N[C@@H](CNC(=O)CCc3cn(CCOCCOCCOCCOCCOCCOCCOCCOCCOCCOCCOCCOCCOCCOCCOCCOCCOCCOCCOCCOCCOCCOCCOCCNC(=O)N[C@H]4CSCCC(=O)N5CN6CN(C5)C(=O)CCSC[C@H](NC(=O)[C@@H](CC(=O)O)NC(=O)[C@H](Cc5cccc7ccccc57)NC(=O)[C@@H]5CCCN5C4=O)C(=O)N[C@@H](CCSC)C(=O)N[C@@H](CCCCNC(=N)N)C(=O)N[C@@H](CC(=O)O)C(=O)N[C@@H](Cc4c[nH]c5ccccc45)C(=O)N[C@@H](CO)C(=O)N[C@@H]([C@@H](C)O)C(=O)N4CCC[C@H]4C(=O)N4C[C@H](O)C[C@H]4C(=O)N[C@@H](Cc4c[nH]c5ccccc45)C(=O)N[C@H](C(N)=O)CSCCC6=O)nn3)C(N)=O)NC1=O)C(=O)CCSC[C@H](NC(=O)[C@H](C)NC(C)=O)C(=O)N[C@@H]([C@@H](C)CC)C(=O)N[C@@H](CCC(=O)O)C(=O)N[C@@H](CCC(=O)O)C(=O)NCC(=O)N[C@@H](CCC(N)=O)C(=O)N[C@@H](Cc1ccc(O)cc1)C(=O)N2 | Tumor necrosis factor receptor superfamily member 9/Nectin-4 | reporter gene, agonist, luciferase reporter | CD137 Jurkat reporter with HT-1376 | 6 h, geometric mean | relative to: wells without compound | Emax | 24 fold |
| COc1cc(O)c(CC=C(C)C)c2c1C(=O)CC(c1ccc(O)cc1)O2 (stereo not shown) | CYP2B6 (human) | enzyme activity, inhibitor | human liver microsomes | 1 µM, pH 7.4, added: bupropion |  | inhibition | < 10% |

Some of these lines once more:
| Compound | target | test | test system | conditions | how to read | quantity | value |
| --- | --- | --- | --- | --- | --- | --- | --- |
| Cc1ccc2c(c1)C(=O)[C@]1(O)CCN(c3ccc4nc(C)ccc4c3)C1=N2.Cl | Sodium channel protein type 5 subunit alpha (SCN5A, Homo sapiens, UniProt Q14524) |  |  | concentration not given |  | inhibition | < 25% |
